Experimental data gathered from unrelated publications.
Parts stem from different laboratories: compare values within a part only.

Set 1
Target: Phosphate system positive regulatory protein PHO4, full length, GST-tagged (PHO4, Saccharomyces cerevisiae, UniProt P07270, residues 1-312)
Method: competition protein-binding microarray
Molecule type: double-stranded DNA, one strand shown
Medium: in vitro
Tested at: 2 µM
Setting: whole 60-bp probe, lowest competitor level
With: Cbf1 competitor, 0.05 µM
Direction: higher = stronger binding
All sequences stand within: … GTCTTGATTCGCTTGACGCTGCTG
Target sequence (chain): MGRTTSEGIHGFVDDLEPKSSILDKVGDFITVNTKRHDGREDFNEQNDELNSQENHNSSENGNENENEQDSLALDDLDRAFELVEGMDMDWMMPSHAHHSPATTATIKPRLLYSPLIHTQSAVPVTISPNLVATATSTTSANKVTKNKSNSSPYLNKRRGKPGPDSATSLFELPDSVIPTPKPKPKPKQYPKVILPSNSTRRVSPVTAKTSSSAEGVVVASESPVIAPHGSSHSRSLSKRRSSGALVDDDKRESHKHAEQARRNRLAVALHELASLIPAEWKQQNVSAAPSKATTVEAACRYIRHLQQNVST
For `GTCTTGTCTCATTGGGCAGTGGGTGTCCCCACTTCA`, the fluorescence intensity was 4280 a.u.
`AAATTACTAAGTTTTCACGTGGATTACCCCGTATGA` gave a fluorescence intensity of 14500 a.u.
`CTTTCCCGATCTTGGAGGGTGGGTGTAGCACATTTG` gave a fluorescence intensity of 4660 a.u.
With `ATTGTTTACACCAATCGCGTGGGTAAAGGGGCTGGA` the fluorescence intensity was 9120 a.u.
For `CATACCCAACCTTGGTAGGTGGGTGAAGATATTTGT`, the fluorescence intensity was 3770 a.u.
With `CGTCCTAGTGATTGTTGAGTGGGTGCCATGAGGAAG` the fluorescence intensity was 7550 a.u.
`CCAAAGCCGCCTGAACGCGTGTTTTTGCTGTTGTTT` has a fluorescence intensity of 8950 a.u.
`CCTTAATAGGCGAGTCACGTGGAATGGTAGAACCGA` has a fluorescence intensity of 16800 a.u.
The fluorescence intensity of `AAGCGGCCGTTGGCGGCCGTGGGTAAGTTATGCATG` is reported as 5150 a.u.
`CGATCAAGCGACCTACACGTGCTTTCAAGGCGCATT` gave a fluorescence intensity of 17000 a.u.
For `TACACCGCACTTTCTGGCGTGCTTTGATCTGGCTTG`, the fluorescence intensity was 5400 a.u.
With `CTAACGAAGGTTTGAAAGGTGGGTGACAAGCCAAGT` the fluorescence intensity was 3900 a.u.
The fluorescence intensity of `AAGTTGAAGAAAAGCCAGGTGACGGAGGTGCCCTAG` is reported as 3370 a.u.
The fluorescence intensity of `TTGGCCTAGCCGGTTCGCGTGTGTTTGTCGCTTTTG` is reported as 5380 a.u.
For `CTTCTGTAAATTTGTCGAGTGGGTGGACGCGCCCCG`, the fluorescence intensity was 4660 a.u.
`CTTTCCCGATCTTTTCACGTGGCGTTAGCACATTTG` gave a fluorescence intensity of 14900 a.u.
For `GTACATGTCCGCCATCACGTGGTGAAGATGTAGTAT`, the fluorescence intensity was 19400 a.u.
For `AAAGCGGTAATTTGATTTGTGGGTGCAGATATCTAT`, the fluorescence intensity was 4820 a.u.
`ATCATTACACCGCGAGTCGTGGGTACATTGTAGTTT` gave a fluorescence intensity of 8940 a.u.
The fluorescence intensity of `TGTTGCCACATAATTGAGGCATGTTAGCAGAGCATT` is reported as 4580 a.u.
`TGCGCAACAACTTGTGCCGTGGGTGTATGTCTAGAA` gave a fluorescence intensity of 6160 a.u.
`TGGTAATAACTGGAGCATGTGGCTGCGAATGTCCCG` gave a fluorescence intensity of 10200 a.u.
The fluorescence intensity of `GAGGTTGGCCTTTTGCACGTAGCTGTTGCTGTTGCT` is reported as 6320 a.u.
For `TGCGCAACAACTTTTCACGTGGACTTATGTCTAGAA`, the fluorescence intensity was 14300 a.u.
`AGGCGCTCGCTCTCTTCCGTGGGTACCTGCTATATA` gave a fluorescence intensity of 4310 a.u.

Set 2
Target: Fragile X messenger ribonucleoprotein 1, C-terminal low-complexity region (Fmr1, Mus musculus, UniProt P35922)
Method: RNA Bind-n-Seq
Molecule type: RNA
Medium: in vitro
Tested at: 200 nM
Setting: whole 134-nt RNA, ends assumed
With: 150 mM LiCl
Relative to: input library
Direction: higher = stronger binding
Each molecule: 7-deaza-guanosine replaces G
All sequences stand within: GGGAGUUCUACAGUCCGACGAUC … UGGAAUUCUCGGGUGUCAAGG
The log2 enrichment of `UGUGCUACACAUCGUAUGUACCGAAUCGGGGUUUUUUUGGGUUUUUUUGGGGUUUUUUUGGGAAAGUAUUAUGUUACGCCGUUCGGAUCU` is reported as 1.27.
With `UUUCGGCUACCCCCAGUUCUUCUUUGCCAAAGCGUACACGUGAAGAGGAAGAGGAUAGCACCAUAGAAGCAUCAGACCAAGUCUCUGAUG` the log2 enrichment was -1.96.
For `ACCAUGCAGGUGGGCAUCUUUGGGAAGUGGGGCAAGGGGGGGAUAGGGAGGGGGGUAACACUUUGGGAUCAGGUGGUCCCAGGUCGUUUC`, the log2 enrichment was 1.41.
The log2 enrichment of `UCCUCAAGUCCUGUGCUACACAUCGUAUGUACCGAAUCGGAGGAGGGAGGGAAAGUAUUAUGUUACGCCGUUCGGAUCUGCACUUCCAGC` is reported as -2.12.
The log2 enrichment of `CAAGUCCUGUGCUACACAUCGUAUGUACCGAAUCAAAUUUAAACCCAAACCCAAAAAAGUAUUAUGUUACGCCGUUCGGAUCUGCACUUC` is reported as 0.988.
With `CACAGACAACACGCACCCACACAGACACAGAGGGAAGGGGUUGGGAUGGGGACAAGGUGCACAGCAGGGCGGGGUAGGACCCCAGCCCCU` the log2 enrichment was 0.222.
The log2 enrichment of `CACAGACAACACGCACCCACACAGACACAGAGGGAAGGGGUUGGGAUGGGGACAGGCUGCACAGCAGGGCGGGGUAGGACCCCAGCCCCU` is reported as -0.423.
`CCUGUGCUACACAUCGUAUGUACCGAAUCAAAGUGUGUGUGUGUGAAAUGUGUGUGUGAAAAAAGUAUUAUGUUACGCCGUUCGGAUCUG` has a log2 enrichment of -1.48.
`UCAAGUCCUGUGCUACACAUCGUAUGUACCGAAUCGGUUUGGUUUUUUUGGUGGAAAGUAUUAUGUUACGCCGUUCGGAUCUGCACUUCC` has a log2 enrichment of -1.06.
With `AAGUCCUGUGCUACACAUCGUAUGUACCGAAUCGGGGCCCCGGCCCCGGGGCCCCGGAAAGUAUUAUGUUACGCCGUUCGGAUCUGCACU` the log2 enrichment was -1.13.
For `CAAGUCCUGUGCUACACAUCGUAUGUACCGAAUCGGAAAGGGGAAAGGGAAAGGGAAAGUAUUAUGUUACGCCGUUCGGAUCUGCACUUC`, the log2 enrichment was -0.447.

Set 3
Target: Interferon regulatory factor 7, full length, phosphomimetic (IRF7, Homo sapiens, UniProt Q92985, residues 1-503, S471D/S472D/S475D/S476D/S477D/S483D/S484D/S487D)
UniProt Q92985, sequence (whole entry, unmodified, looked up): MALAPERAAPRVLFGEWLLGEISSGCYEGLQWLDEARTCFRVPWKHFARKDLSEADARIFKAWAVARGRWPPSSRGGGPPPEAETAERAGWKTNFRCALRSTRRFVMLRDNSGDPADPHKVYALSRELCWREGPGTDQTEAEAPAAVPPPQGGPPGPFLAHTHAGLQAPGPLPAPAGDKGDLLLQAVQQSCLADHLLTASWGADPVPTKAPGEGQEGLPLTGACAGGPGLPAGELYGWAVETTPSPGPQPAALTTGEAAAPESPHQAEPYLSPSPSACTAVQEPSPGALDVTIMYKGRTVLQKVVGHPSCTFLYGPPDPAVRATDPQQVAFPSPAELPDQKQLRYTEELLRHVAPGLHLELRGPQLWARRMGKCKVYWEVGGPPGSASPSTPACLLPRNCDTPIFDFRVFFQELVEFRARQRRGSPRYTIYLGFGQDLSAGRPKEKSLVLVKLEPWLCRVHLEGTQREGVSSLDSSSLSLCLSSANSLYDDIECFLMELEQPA
Method: protein-binding microarray
Molecule type: double-stranded DNA, one strand shown
Medium: in vitro
Tested at: 2200 nM top
Setting: 60-bp whole probe
With: salmon DNA 0.4 mg/ml
Relative to: random background probes
Direction: higher = stronger binding
All sequences stand within: GCCTAGCAC … GTCTTGATTCGCTTGACGCTGCTG
For `TTAGGACTGGGGTTTCGGTTAGTGCTA`, “fitted relative affinity” read 2.67 z-score.
`TTTGTCATCTATAATGGATATGTGCTA` — result for “fitted relative affinity”: 0.604 z-score.
`GACGGTATCGGTCGCGGGACGTGCTAG`: “fitted relative affinity” -0.279 z-score.
`GACGGTTTCGACTTTGGGGACGTGCTA` — result for “fitted relative affinity”: 5.73 z-score.
`CTTGCTTTTTAGATCGTCCCGTGCTAG` — result for “fitted relative affinity”: 1.44 z-score.
Under “fitted relative affinity”, `TTAGGTATCCTTTTCTTTTAGTGCTAG` is recorded as 1.53 z-score.
Under “fitted relative affinity”, `TTAGGACTGCTTTTCCCTTAGTGCTAG` is recorded as 1.14 z-score.
`GACGGACTGCTTTTCCTGACGTGCTAG`: “fitted relative affinity” 0.617 z-score.
For `TCATCTAGGTTTTCTGGAACTGTGCTA`, “fitted relative affinity” read 0.382 z-score.
`GACGGTATCGGTCTCGGGCCGTGCTAG` — result for “fitted relative affinity”: -0.205 z-score.
Under “fitted relative affinity”, `GTCGGACTGGGACTGGGGACGTGCTAG` is recorded as -0.516 z-score.
`AGTATGTTCCCTATTTAAGAGTGCTAG` — result for “fitted relative affinity”: 1.48 z-score.
Under “fitted relative affinity”, `GACGGTTTCCCTTTCCTGACGTGCTAG` is recorded as 5.69 z-score.
For `TTAGGACTGGGGTTTCGGTCAGTGCTA`, “fitted relative affinity” read 0.461 z-score.
Under “fitted relative affinity”, `TCATCTTCACATATAATACTGTGCTAG` is recorded as 1.48 z-score.
`GACGATATCCGGACTGGAGACGTGCTA` — result for “fitted relative affinity”: 0.25 z-score.
Under “fitted relative affinity”, `TTTTTTTTGTATTTTTGATAGTGCTAG` is recorded as 1.72 z-score.
`TCATTATCCTATATCTGACTGTGCTAG` — result for “fitted relative affinity”: 1.66 z-score.
`GTTACTTTCTACTTCTCTTTGTGCTAG`: “fitted relative affinity” 7.56 z-score.
Under “fitted relative affinity”, `GACGCTCTCAGTATCGAGACGTGCTAG` is recorded as 0.291 z-score.
`TTAGGTATCGGTATCGGTCAGTGCTAG`: “fitted relative affinity” 0.534 z-score.
`GACGATCTCGGGACTGGAGACGTGCTA` — result for “fitted relative affinity”: -0.393 z-score.
`CTTGCCCACTTCTGTGACAGGTGCTAG` — result for “fitted relative affinity”: 0.762 z-score.
`TTAGGTCTCGGTCTCCGTTAGTGCTAG` — result for “fitted relative affinity”: 0.701 z-score.
Under “fitted relative affinity”, `TTAGATCTCAGGATCGATTAGTGCTAG` is recorded as -0.219 z-score.

Set 4
Target: Sal-like protein 4, full length isoform B (SALL4, Homo sapiens, UniProt Q9UJQ4-2, residues 1-616)
Method: universal PBM
Molecule type: double-stranded DNA, one strand shown
Medium: in vitro
Tested at: not given
Setting: 8-mer, flanks averaged, mean of replicates
Direction: higher = stronger binding
The E-score of `GATGTAAC` is reported as 0.158.
`CGACAGGC` has an E-score of -0.315.
The E-score of `TAACCTTA` is reported as 0.167.
`CCGGTCAA` has an E-score of -0.235.
`CGATGCAG` has an E-score of -0.243.
With `GTTATGAA` the E-score was 0.427.
`AGGGTCAT` gave an E-score of 0.0171.
The E-score of `TAACTGTA` is reported as 0.267.
With `GGGTCGTA` the E-score was -0.17.
For `TGCGCGCA`, the E-score was -0.0838.
`ACATTTGA` gave an E-score of 0.241.
The E-score of `GCTTAGAA` is reported as -0.0592.
`ATGCGCAA` has an E-score of -0.0195.
`ATACGCTA` has an E-score of 0.0658.
`ACGGTGGA` gave an E-score of -0.276.
`CTCAAGAC` gave an E-score of -0.0965.
`CCGCTATC` has an E-score of -0.128.
With `AGGCTCGA` the E-score was -0.08.
The E-score of `AACTCAGG` is reported as -0.0647.
With `ACTCTCTG` the E-score was -0.0199.
`CGAGGTCA` has an E-score of -0.175.
The E-score of `ACCGTAAC` is reported as 0.0105.
The E-score of `ATTTCAGG` is reported as 0.0922.
`ATTATGCC` gave an E-score of 0.276.
With `AGGTCACT` the E-score was -0.172.

Excerpt of the above (set 4):
`CCGCTATC` has an E-score of -0.128.
For `TGCGCGCA`, the E-score was -0.0838.
`CCGGTCAA` has an E-score of -0.235.
`AGGGTCAT` gave an E-score of 0.0171.
`CGAGGTCA` has an E-score of -0.175.
With `AGGCTCGA` the E-score was -0.08.
`CGATGCAG` has an E-score of -0.243.
`ATGCGCAA` has an E-score of -0.0195.
